Assay results collected from several papers.
Parts stem from different laboratories: compare values within a part only.
UniProt Q9UHD2, sequence (whole entry, looked up): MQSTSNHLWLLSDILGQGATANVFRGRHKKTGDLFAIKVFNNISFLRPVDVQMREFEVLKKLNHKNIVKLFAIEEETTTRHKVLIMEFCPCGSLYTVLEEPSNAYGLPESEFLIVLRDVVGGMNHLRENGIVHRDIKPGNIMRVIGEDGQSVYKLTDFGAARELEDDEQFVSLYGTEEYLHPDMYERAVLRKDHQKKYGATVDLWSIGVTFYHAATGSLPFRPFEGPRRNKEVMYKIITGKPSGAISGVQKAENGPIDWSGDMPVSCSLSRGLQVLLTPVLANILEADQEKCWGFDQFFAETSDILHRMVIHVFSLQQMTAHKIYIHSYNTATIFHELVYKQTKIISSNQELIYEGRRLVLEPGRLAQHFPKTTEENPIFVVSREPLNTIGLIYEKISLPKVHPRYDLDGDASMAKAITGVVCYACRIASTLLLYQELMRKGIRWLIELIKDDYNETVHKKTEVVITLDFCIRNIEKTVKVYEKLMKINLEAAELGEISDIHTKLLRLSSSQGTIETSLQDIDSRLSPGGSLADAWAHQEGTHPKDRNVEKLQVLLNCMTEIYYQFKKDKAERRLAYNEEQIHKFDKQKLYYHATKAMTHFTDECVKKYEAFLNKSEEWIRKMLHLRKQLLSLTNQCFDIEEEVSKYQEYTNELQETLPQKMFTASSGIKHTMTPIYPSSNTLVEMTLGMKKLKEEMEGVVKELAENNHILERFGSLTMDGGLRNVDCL
UniProt P30291, sequence (whole entry, looked up): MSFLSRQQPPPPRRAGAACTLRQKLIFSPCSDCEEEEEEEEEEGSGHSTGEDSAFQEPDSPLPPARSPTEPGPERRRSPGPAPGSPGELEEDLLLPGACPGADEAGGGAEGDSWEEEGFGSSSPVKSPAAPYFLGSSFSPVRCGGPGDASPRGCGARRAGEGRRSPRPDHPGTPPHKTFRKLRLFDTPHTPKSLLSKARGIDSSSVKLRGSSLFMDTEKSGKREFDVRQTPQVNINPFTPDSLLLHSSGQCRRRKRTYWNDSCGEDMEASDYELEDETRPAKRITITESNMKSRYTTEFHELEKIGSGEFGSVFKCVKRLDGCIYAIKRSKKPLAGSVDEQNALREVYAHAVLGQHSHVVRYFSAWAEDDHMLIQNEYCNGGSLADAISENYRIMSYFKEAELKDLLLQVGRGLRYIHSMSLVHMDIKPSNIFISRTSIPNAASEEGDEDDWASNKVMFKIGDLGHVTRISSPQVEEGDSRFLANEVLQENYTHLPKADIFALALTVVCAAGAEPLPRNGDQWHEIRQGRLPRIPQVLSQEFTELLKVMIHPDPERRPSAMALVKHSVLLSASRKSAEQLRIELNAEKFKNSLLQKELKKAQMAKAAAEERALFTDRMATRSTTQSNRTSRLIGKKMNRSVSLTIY
UniProt P22607, sequence (whole entry, looked up): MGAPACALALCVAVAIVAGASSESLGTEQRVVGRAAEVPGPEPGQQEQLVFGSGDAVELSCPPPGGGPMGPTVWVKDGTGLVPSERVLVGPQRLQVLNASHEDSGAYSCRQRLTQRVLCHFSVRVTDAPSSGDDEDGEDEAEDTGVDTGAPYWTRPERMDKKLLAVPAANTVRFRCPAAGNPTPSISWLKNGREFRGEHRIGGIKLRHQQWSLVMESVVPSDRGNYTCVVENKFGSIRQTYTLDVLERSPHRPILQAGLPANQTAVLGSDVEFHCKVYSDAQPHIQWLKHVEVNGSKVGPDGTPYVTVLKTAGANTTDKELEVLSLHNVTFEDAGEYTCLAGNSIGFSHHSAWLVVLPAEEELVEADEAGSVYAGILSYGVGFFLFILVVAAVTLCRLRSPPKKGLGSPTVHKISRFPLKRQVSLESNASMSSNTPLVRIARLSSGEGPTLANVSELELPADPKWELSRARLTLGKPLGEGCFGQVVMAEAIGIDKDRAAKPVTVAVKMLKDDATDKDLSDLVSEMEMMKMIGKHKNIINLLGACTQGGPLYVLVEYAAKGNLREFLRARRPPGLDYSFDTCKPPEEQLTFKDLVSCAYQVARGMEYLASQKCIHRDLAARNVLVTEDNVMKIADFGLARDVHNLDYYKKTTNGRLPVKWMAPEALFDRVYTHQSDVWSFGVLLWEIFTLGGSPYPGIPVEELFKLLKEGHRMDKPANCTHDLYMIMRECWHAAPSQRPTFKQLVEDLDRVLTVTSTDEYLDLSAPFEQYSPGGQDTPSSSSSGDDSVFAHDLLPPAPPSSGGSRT
UniProt P78368, sequence (whole entry, looked up): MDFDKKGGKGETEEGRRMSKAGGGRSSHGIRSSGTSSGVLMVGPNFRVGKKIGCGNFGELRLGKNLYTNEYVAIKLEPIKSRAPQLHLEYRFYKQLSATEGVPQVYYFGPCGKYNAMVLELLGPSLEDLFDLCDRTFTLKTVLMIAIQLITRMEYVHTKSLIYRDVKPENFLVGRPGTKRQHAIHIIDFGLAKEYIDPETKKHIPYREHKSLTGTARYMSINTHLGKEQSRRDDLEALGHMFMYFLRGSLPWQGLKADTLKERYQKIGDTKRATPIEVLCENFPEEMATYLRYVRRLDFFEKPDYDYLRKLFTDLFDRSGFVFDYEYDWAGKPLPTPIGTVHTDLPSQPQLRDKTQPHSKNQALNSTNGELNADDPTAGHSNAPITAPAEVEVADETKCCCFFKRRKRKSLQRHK
UniProt P42685, sequence (whole entry, looked up): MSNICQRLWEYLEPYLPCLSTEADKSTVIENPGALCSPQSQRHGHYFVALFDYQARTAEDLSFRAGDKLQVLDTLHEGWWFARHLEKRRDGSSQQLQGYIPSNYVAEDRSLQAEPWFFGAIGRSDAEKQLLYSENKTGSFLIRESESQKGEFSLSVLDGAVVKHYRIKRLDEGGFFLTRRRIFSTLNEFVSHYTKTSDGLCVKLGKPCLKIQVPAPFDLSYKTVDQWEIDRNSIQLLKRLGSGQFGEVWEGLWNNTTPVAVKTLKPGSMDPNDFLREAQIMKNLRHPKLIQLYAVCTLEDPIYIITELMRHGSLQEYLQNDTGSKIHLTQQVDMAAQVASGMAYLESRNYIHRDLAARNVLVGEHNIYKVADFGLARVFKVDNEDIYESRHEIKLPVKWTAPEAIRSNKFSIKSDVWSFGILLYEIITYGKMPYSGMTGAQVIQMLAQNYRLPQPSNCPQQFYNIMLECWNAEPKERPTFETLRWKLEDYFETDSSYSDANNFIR
UniProt P29320, sequence (whole entry, looked up): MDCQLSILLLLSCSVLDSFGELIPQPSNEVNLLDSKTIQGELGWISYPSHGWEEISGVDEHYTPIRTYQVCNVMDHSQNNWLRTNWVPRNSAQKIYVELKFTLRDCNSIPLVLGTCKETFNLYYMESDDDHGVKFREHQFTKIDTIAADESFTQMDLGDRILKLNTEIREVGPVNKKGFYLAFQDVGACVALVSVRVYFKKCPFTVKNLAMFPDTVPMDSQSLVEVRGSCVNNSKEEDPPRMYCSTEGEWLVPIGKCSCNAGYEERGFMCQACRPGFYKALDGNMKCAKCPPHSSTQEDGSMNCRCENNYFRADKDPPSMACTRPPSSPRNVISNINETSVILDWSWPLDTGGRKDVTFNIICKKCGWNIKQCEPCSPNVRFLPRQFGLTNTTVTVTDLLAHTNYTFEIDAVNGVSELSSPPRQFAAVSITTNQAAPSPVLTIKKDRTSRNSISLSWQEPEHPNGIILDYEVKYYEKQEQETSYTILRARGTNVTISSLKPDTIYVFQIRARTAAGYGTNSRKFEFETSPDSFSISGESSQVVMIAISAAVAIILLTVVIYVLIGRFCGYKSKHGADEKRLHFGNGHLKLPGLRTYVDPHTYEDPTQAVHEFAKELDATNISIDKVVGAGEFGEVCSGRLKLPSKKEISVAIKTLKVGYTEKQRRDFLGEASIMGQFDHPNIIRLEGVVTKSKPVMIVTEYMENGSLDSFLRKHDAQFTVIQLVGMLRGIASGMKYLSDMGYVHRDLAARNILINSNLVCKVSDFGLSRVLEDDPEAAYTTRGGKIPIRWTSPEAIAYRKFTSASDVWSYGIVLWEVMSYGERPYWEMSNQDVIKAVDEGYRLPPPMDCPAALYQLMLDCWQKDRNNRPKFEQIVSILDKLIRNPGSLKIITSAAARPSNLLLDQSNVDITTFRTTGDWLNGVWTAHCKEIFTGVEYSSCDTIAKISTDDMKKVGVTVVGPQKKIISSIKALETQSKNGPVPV
UniProt Q6PHR2, sequence (whole entry, looked up): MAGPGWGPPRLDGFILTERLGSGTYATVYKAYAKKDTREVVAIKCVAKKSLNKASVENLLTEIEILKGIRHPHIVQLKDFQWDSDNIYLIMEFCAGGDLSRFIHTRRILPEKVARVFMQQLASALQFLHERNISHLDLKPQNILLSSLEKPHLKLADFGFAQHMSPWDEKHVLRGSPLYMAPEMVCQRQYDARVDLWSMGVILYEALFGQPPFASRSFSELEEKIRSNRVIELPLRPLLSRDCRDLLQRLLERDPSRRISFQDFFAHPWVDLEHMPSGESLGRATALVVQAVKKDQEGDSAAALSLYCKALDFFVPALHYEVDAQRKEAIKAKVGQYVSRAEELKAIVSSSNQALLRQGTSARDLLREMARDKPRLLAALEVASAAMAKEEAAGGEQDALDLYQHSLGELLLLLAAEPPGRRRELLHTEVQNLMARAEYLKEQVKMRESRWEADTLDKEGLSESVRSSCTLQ
UniProt Q9Y6M4, sequence (whole entry, looked up): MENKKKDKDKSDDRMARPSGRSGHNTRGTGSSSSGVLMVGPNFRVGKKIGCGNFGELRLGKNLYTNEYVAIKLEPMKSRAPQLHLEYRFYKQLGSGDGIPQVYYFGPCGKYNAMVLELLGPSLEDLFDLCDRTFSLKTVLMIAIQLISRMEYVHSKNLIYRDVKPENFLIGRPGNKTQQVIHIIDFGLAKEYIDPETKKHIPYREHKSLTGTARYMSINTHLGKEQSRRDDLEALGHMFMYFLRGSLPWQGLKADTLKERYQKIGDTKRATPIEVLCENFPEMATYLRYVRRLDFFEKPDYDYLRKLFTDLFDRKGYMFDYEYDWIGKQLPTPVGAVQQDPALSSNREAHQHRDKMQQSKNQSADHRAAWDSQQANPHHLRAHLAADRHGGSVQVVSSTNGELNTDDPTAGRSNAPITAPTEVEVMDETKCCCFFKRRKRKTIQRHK

Series 1
Target: Prothrombin, mature alpha-thrombin (F2, Homo sapiens, UniProt P00734)
Technique: aptamer microarray, sandwich
Molecule type: DNA with 2'F-ANA
Matrix: in vitro
Tested at: 200 nM
Setting: whole 15-mer aptamer, many near background
Together with: Cy3 exosite-II aptamer, 400 nM
Reading: higher = stronger binding
Endpoint: mean fluorescence intensity
Sequence: GGTTGGTGTGGTTGG
Modification = 2'F-ANA at 1 4 5 6 9 10 11 12 14 15; result = 48.8 a.u.
Modification = 2'F-ANA at 2 4 5 6 9 11 14; result = 49 a.u.
Modification = 2'F-ANA at 2 3 4 7 8 11 12 13 14 15; result = 333 a.u.
Modification = 2'F-ANA at 3 4 7 9 10 12 15; result = 316 a.u.
Modification = 2'F-ANA at 1 4 5 7 9 12 14 15; result = 44.1 a.u.
Modification = 2'F-ANA at 2 4 6 7 8 9 10 11 12 13; result = 86.3 a.u.
Modification = 2'F-ANA at 5 8 11 13 14 15; result = 44.2 a.u.
Modification = 2'F-ANA at 2 3 4 7 8 11 12 15; result = 759 a.u.

Series 2
Compound: N#CC(=C(N)Sc1ccc(N)cc1)c1ccccc1C(F)(F)F
Effect on: enzyme activity
Mode: inhibitor
Tested at: 0.5 µM
Reference: control
Endpoint: remaining activity
target = Tyrosine-protein kinase FRK (FRK, Homo sapiens, UniProt P42685); result = 102%
target = Wee1-like protein kinase (WEE1, Homo sapiens, UniProt P30291); result = 73.8%
target = Serine/threonine-protein kinase ULK3 (ULK3, Homo sapiens, UniProt Q6PHR2); result = 106%
target = Casein kinase I isoform gamma-3 (CSNK1G3, Homo sapiens, UniProt Q9Y6M4); result = 103%
target = Angiopoietin-1 receptor (TEK, Homo sapiens, UniProt Q02763); result = 104%
target = Casein kinase I isoform gamma-2 (CSNK1G2, Homo sapiens, UniProt P78368); result = 96.4%
target = Serine/threonine-protein kinase TBK1 (TBK1, Homo sapiens, UniProt Q9UHD2); result = 98.1%
target = Fibroblast growth factor receptor 3 (FGFR3, Homo sapiens, UniProt P22607); result = 98.5%
target = Ephrin type-A receptor 3 (EPHA3, Homo sapiens, UniProt P29320); result = 105%
target = Ribosomal protein S6 kinase alpha-2 (RPS6KA2, Homo sapiens, UniProt Q15349); result = 99.2%
target = Tyrosine-protein kinase JAK3 (JAK3, Homo sapiens, UniProt P52333); result = 101%
target = Tyrosine-protein kinase Mer (MERTK, Homo sapiens, UniProt Q12866); result = 80.7%
target = Mitogen-activated protein kinase kinase kinase 5 (MAP3K5, Homo sapiens, UniProt Q99683); result = 108%
target = Rhodopsin kinase GRK7 (GRK7, Homo sapiens, UniProt Q8WTQ7); result = 113%

Series 3
Target: RING finger protein unkempt homolog, zinc fingers 1-6, GST-SBP tag (UNK, Homo sapiens, UniProt Q9C0B0, residues 30-357)
Technique: RNA Bind-n-Seq
Molecule type: RNA
Matrix: in vitro
Tested at: not given
Setting: RNA with constant flanks, human and mouse sites, ends assumed
Reference: input RNA pool
Reading: higher = stronger binding
Endpoint: bound/input enrichment
All sequences stand within: GGGAGUUCUACAGUCCGACGAUC … CAACAGAGGAUUGAGCAUCA
Residues (chain): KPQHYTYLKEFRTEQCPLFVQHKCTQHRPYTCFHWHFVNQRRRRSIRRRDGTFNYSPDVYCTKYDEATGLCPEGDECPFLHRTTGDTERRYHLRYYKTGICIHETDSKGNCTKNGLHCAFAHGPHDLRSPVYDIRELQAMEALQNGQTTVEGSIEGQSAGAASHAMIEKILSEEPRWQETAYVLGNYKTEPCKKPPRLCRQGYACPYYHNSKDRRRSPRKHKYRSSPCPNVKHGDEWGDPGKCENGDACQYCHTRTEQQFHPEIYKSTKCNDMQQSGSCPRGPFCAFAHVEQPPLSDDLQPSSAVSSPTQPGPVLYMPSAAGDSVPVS
Sequence = AGUGGCCUACAAAUCCAGAGACACAGCUAUAAAGACCUAGCAAGAUGCAAGGCUGCCAGCAUCUUUGCUCUCCACCUCCUGCCUCUGCUUAUUUCUUGUUCUGGAACUAAAUGAACAGAA; result = 0.416 ratio
Sequence = GACUUAGCAAAUAAAAGAGCUGUUGACUUCCAGGAAGCACAGUCCUAUGCAGAUGACAACAGCUUAUUAUUUAUGGAGACAUCAGCUAAGACAUCAAUGAAUGUAAAUGAAAUAUUUAUG; result = 0.211 ratio
Sequence = AUUAGAAAUGGUUUGUGCUGCCUUGGUAGGGCUUUAAAGCACAGUAUUUCUCACUGACACAUUGGGCUUUCUGCUGGAAAGGAGCGGUGGGUAAGGCUCCCCUGGGUAUCACAUUGUGUA; result = 0.231 ratio
Sequence = GUUGGUCAGUUCUACUUCUUGAUCCGGAAGCGAAUUCAUCUCCGAGCUGAGGAUGCCUUGUUUUUCUUUGUCAACAAUGUCAUUCCACCCACCAGUGCCACAAUGGGUCAGCUGUACCAG; result = 0.143 ratio
Sequence = AGGCCCGAACCAAACUUUUCCGGGCCACUCGGCGGCCCGAGACCAGGGGGAAGGGGGGGACAGGGAGAAGGAAGCCGGUGGCGGCGCCUGGGGCUCGCGGGCGAGCCUCCCUCCGCGGCC; result = 0.0875 ratio
Sequence = UUGAAUAGUUACUUUAAAUCUCUGGGAAGCAGUGAUUUGAAAUUCUAAAGUUUAUUUUGGAGCAAAGGUCAACACAUCAUAGCACAGAGGCUAGGCCCAUUUUCAUGCAGCCUACAAGCU; result = 1.82 ratio
Sequence = CCAACGUUAGAAGCAGCCUGGCCUCAUCUGCAGCUUGUUUAUGAAUUUUUCUUAAGAUUUUUAGAGUCUCCAGAUUUCCAACCCAAUAUAGCAAAGAAAUAUAUUGAUCAGAAGUUUGUA; result = 3.07 ratio
Sequence = CGAUGUGCUCAAAAGAGAUAUAAUGGAGGACUGCUAGAAUUUCAUAAAAGCUUACAAGAAAUUGGAGACAAAAAUGACCAUUGGUUUGACAUAGAUCCUACAGAAGAUGAAGAUUUACCU; result = 0.198 ratio

Single results of other studies
SMILES = O=C(NCc1ncc(C(F)(F)F)cc1Cl)c1ccc2c(c1)C1(CCS(=O)(=O)CC1)[C@H](C1CC1)N2S(=O)(=O)c1ccc(F)cc1; cell line = sample G normal colon organoids; test = CellTiter-Glo; test system = human patient-derived organoids; setting = 0.1 µM, 4 days; how to read = reference: DMSO control; endpoint = viability; result = 96.8%

Excerpt of the above (series 2):
target = Tyrosine-protein kinase FRK (FRK, Homo sapiens, UniProt P42685); result = 102%
target = Wee1-like protein kinase (WEE1, Homo sapiens, UniProt P30291); result = 73.8%
target = Serine/threonine-protein kinase ULK3 (ULK3, Homo sapiens, UniProt Q6PHR2); result = 106%
